Experimental data gathered from unrelated publications.
Numbered parts are unrelated; each lists some results of a single study. “And” joins repeats or separate records; there may be more than shown.
Chain of UniProt P49761 (whole entry, looked up): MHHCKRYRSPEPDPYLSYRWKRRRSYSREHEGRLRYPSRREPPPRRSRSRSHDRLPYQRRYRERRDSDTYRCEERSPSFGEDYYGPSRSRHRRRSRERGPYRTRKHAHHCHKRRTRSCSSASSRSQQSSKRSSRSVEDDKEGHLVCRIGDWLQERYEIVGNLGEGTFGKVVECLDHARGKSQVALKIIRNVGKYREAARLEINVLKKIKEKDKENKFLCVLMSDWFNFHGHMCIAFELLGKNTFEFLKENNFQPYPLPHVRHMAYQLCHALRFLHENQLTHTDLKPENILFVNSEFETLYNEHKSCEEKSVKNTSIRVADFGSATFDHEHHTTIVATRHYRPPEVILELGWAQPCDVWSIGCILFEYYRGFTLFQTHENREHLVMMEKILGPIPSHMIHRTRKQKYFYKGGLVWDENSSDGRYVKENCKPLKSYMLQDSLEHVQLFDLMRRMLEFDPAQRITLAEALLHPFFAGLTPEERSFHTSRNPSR
Chain of UniProt Q02763 (whole entry, looked up): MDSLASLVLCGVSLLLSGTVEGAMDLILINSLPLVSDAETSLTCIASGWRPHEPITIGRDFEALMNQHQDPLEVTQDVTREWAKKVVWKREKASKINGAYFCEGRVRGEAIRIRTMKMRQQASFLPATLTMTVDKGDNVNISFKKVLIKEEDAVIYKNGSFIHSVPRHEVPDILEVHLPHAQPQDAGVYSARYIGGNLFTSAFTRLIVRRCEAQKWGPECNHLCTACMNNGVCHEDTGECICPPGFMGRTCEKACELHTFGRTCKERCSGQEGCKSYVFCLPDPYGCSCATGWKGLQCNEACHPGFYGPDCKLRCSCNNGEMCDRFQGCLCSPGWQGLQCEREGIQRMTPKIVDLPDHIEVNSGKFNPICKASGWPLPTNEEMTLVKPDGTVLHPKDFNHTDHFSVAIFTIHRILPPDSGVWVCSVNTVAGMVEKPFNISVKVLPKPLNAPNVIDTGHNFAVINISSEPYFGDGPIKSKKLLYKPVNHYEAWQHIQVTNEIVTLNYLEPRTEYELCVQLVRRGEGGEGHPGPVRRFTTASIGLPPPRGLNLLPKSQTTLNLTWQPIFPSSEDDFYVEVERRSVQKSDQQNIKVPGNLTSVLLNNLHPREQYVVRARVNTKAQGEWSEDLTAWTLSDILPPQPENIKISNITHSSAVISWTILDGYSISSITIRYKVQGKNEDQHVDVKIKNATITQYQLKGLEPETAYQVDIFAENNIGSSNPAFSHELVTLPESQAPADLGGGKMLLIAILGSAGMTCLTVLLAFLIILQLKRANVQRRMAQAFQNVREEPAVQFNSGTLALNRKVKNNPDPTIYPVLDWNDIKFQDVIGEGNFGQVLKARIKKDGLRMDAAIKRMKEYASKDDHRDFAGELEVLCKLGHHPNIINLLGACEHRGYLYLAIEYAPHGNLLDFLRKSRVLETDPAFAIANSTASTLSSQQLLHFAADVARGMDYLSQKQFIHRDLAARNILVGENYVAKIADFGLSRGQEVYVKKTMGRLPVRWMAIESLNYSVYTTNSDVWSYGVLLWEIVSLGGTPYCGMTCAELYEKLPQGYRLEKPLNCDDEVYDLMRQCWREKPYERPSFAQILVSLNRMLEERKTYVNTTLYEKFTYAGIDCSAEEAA
Chain of UniProt O75914 (whole entry, looked up): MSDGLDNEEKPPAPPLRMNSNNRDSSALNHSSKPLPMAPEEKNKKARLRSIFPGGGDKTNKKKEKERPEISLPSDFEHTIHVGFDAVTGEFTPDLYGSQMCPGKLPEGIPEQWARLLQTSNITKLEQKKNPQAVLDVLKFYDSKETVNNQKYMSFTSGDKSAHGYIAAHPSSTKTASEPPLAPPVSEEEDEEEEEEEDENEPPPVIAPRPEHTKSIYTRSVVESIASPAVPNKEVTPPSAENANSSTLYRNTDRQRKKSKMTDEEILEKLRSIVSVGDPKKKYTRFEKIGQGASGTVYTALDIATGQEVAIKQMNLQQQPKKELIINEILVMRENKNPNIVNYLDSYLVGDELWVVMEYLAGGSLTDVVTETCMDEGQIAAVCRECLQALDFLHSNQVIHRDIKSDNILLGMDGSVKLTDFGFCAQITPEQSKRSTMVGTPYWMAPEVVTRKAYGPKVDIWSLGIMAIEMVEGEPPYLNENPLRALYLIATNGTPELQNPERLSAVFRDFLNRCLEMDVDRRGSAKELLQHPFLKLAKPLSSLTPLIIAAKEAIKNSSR
Chain of UniProt Q00526 (whole entry, looked up): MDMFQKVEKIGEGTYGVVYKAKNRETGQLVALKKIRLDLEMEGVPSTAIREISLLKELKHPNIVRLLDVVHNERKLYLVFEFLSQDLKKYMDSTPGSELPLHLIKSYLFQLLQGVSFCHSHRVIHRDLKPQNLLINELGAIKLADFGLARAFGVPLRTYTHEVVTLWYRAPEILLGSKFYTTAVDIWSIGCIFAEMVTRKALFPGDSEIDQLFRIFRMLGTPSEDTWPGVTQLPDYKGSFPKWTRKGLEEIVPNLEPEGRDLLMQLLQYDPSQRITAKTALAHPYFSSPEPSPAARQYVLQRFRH

Block 1
Target: DNA polymerase theta, ATPase domain (POLQ, Homo sapiens, UniProt O75417)
Chain of UniProt O75417 (whole entry, unmodified, looked up): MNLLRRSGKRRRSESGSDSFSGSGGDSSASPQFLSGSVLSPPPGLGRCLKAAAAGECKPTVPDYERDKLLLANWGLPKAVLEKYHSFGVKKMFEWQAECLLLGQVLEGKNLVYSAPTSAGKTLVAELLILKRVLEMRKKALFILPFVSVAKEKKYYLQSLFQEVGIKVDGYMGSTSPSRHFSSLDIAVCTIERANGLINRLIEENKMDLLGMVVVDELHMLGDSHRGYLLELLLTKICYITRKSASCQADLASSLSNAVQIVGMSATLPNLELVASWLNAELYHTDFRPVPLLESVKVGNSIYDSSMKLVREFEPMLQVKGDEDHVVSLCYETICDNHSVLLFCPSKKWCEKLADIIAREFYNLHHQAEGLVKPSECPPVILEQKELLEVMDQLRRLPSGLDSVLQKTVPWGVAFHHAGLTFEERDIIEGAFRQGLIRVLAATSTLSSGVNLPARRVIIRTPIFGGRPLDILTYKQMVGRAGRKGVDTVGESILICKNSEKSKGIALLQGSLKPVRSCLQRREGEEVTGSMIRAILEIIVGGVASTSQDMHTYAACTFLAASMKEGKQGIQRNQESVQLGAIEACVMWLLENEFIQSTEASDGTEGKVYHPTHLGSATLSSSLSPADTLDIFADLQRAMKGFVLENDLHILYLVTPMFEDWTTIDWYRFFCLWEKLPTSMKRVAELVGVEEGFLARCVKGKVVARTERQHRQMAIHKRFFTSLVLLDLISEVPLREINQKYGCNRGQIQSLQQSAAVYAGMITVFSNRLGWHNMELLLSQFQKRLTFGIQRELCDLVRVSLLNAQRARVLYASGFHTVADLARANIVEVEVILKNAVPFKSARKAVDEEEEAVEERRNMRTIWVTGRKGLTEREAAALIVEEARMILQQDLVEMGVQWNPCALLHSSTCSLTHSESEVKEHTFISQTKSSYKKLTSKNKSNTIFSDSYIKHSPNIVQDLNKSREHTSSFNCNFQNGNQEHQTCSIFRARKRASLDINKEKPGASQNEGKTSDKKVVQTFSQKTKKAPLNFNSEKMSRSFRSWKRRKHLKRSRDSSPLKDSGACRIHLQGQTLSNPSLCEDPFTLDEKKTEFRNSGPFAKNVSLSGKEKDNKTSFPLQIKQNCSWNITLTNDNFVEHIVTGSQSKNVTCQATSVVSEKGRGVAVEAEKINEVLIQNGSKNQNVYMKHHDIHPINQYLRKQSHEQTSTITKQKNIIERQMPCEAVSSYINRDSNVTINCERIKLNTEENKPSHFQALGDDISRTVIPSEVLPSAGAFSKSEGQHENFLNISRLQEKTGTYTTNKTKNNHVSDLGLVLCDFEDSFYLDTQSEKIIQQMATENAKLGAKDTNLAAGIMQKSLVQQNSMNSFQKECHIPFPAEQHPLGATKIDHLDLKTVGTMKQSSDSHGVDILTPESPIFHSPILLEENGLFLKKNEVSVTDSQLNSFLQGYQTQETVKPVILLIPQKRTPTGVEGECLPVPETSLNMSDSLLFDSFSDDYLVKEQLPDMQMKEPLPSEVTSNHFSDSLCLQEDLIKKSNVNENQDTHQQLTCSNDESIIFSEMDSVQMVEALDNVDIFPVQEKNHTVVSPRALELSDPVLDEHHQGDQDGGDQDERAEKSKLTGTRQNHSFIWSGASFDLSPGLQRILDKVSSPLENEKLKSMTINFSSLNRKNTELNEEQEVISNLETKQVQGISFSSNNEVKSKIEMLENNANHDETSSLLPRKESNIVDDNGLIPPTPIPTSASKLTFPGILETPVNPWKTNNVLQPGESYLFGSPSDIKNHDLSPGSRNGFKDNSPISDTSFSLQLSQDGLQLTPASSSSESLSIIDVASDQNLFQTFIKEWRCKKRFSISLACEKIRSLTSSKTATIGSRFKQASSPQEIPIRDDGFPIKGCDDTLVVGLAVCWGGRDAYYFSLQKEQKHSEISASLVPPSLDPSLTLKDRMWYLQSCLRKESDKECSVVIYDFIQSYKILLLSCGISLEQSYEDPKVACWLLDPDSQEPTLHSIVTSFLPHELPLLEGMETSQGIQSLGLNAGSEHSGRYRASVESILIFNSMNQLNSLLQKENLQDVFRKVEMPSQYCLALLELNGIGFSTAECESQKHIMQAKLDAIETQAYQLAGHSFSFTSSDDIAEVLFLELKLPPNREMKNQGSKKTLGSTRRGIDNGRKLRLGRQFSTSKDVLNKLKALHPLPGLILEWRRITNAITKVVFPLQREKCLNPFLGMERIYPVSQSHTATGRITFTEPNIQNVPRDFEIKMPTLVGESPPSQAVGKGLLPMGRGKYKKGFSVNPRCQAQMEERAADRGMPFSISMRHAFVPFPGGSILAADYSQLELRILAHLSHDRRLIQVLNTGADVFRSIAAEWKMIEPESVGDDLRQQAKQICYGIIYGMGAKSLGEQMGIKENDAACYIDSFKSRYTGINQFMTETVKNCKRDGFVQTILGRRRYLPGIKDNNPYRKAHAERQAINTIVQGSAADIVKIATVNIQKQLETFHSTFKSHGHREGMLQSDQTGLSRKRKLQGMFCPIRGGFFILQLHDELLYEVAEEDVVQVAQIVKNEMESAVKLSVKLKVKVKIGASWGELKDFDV
Observed: enzyme activity
Mode: inhibitor
Tested at: 77 µM
Reference: untreated
Quantity: remaining activity
CCOC(=O)[C@H](CCc1ccccc1)N[C@@H](C)C(=O)N1Cc2cc(OC)c(OC)cc2C[C@H]1C(=O)O: 102%
CCN(CC)CCNC(=O)c1ccc(NC(C)=O)cc1: 103%
CC(C)NC[C@H](O)COc1ccc(CCOCC2CC2)cc1: 95%
N[C@@H](CCC(=O)N[C@@H](CSN=O)C(=O)NCC(=O)O)C(=O)O: 108%
CCC1=C[C@@H]2CN(C1)Cc1c([nH]c3ccccc13)[C@@](C(=O)OC)(c1cc3c(cc1OC)N(C)[C@H]1[C@@](O)(C(=O)OC)[C@H](OC(C)=O)[C@]4(CC)C=CCN5CC[C@]31[C@@H]54)C2: 101%
C[N+]1(C)CCC[C@H]1C(=O)[O-]: 100%
C[C@@H]1C(=O)O[C@H]2C[C@@]34[C@H]5C[C@@H](C(C)(C)C)[C@]36[C@@H](OC(=O)[C@@H]6O)O[C@@]4(C(=O)O5)[C@]21O: 103% and 98.8%

Block 2
Compound: CC#CC(=O)N1CCC[C@H]1c1nc(-c2ccc(C(=O)Nc3ccccn3)cc2)c2c(N)nccn12
Observed: enzyme activity
Mode: inhibitor
Tested at: 1 µM
Quantity: inhibition
SRPK2 (Homo sapiens, UniProt P78362): 4%
TNK2 (Homo sapiens, UniProt Q07912): 31%
MAPKAPK5 (Homo sapiens, UniProt Q8IW41): 8%
FLT3 (Homo sapiens, UniProt P36888, ITD): 0%
MAPK6 (Homo sapiens, UniProt Q16659): 2%
CLK3 (Homo sapiens, UniProt P49761): 6%
MAP4K1 (Homo sapiens, UniProt Q92918): 0%
CSNK1E (Homo sapiens, UniProt P49674): 1%

Block 3
Species: human
Matrix: microsomes or S9
Tested at: 2 µM
Time: 0.5 h
Quantity: remaining compound
CCc1sc(C(=O)Nn2cnnc2)cc1Br: 82.4%
COc1ccccc1-c1n[nH]cc1CN1CCCN(S(=O)(=O)c2cn(C)cn2)C(c2ccccc2)CC(=O)NCC1 (stereo not shown): 88.5%
O=c1ccc2cc(S(=O)(=O)N3CCOCC3)ccc2[nH]1: 78.6%
O=C(NC1CCN(Cc2ccc(Cl)c(Cl)c2)CC1)c1cc2ccc3ccccc3c2o1: > 99%
Cc1[nH]c(=O)[nH]c(=O)c1S(=O)(=O)NCC(Cc1ccccc1F)c1ccccc1 (stereo not shown): > 100%
COCCNC(=O)[C@@H]1C[C@H](Oc2cccnc2)CN1C(=O)c1ccc(OC)nc1OC: 69.3%
CCc1nc2cc(-c3ccc(OC)nc3)cnc2[nH]1: 71.4%
COC(=O)Nc1nc2cc(C(=O)c3ccccc3C(=O)OC(C)C)ccc2[nH]1: 47.3%
CCn1nc(-c2cc(C)ccc2Cl)nc1N(C)C: 5.25%

Block 4
Compound: COc1ccc2[nH]c3c4[nH]c5ccc(OC)cc5c4c4c(c3c2c1)C(=O)NC4=O
Tested at: 1 µM
Quantity: remaining binding
TEK (Homo sapiens, UniProt Q02763); competitive binding; TIE2: 100%
CDPK1 (Plasmodium falciparum, UniProt P62344); competitive binding, scanMAX; Plasmodium falciparum CDPK1, 1000 nM: 29%
ACVR1B (Homo sapiens, UniProt P36896); competitive binding panel; reference: vehicle: 100%
GSK3A (Homo sapiens, UniProt P49840); competitive binding panel; reference: vehicle: 100%
CSF1R (Homo sapiens, UniProt P07333); competitive binding panel; reference: vehicle: 58%
ABL1 (Homo sapiens, UniProt P00519, M351T); competitive binding panel; reference: vehicle: 68%

Block 5
SMILES: CCOCCn1cc(C(=O)Nc2ccc(-n3nc(-c4cccnc4)cc3C(F)(F)F)cn2)ccc1=O
Method: competition with immobilised ligand
Tested at: 1 µM
Quantity: remaining binding
BTK (Homo sapiens, UniProt Q06187); cell-free assay: 79%
Tyrosine-protein kinase ABL1, non-phosphorylated (ABL1, Homo sapiens, UniProt P00519, Q252H); cell-free assay: 83%
PAK3 (Homo sapiens, UniProt O75914); cell-free assay: 100%
PIK3CG (Homo sapiens, UniProt P48736); cell-free assay: 100%
CDK3 (Homo sapiens, UniProt Q00526); cell-free assay: 100%
Tyrosine-protein kinase ABL1, phosphorylated (ABL1, Homo sapiens, UniProt P00519, E255K); binding: 69%
PRKD1 (Homo sapiens, UniProt Q15139); cell-free assay: 100%
RIOK2 (Homo sapiens, UniProt Q9BVS4); cell-free assay: 60%
WNK2 (Homo sapiens, UniProt Q9Y3S1); cell-free assay: 64%
CLK3 (Homo sapiens, UniProt P49761); cell-free assay: 100%
MST1R (Homo sapiens, UniProt Q04912); cell-free assay: 100%
PIM2 (Homo sapiens, UniProt Q9P1W9); cell-free assay: 100%
NIM1K (Homo sapiens, UniProt Q8IY84); cell-free assay: 100%
ULK3 (Homo sapiens, UniProt Q6PHR2); cell-free assay: 61%
ACVR1 (Homo sapiens, UniProt Q04771); cell-free assay: 75%
EPHA6 (Homo sapiens, UniProt Q9UF33); cell-free assay: 93%
PIK3CA (Homo sapiens, UniProt P42336); cell-free assay: 92%
Tyrosine-protein kinase JAK1, JH1 (JAK1, Homo sapiens, UniProt P23458); cell-free assay: 100%
Ribosomal protein S6 kinase alpha-1, C-terminal kinase domain (RPS6KA1, Homo sapiens, UniProt Q15418); cell-free assay: 100%
MAP4K4 (Homo sapiens, UniProt O95819); cell-free assay: 91%
MINK1 (Homo sapiens, UniProt Q8N4C8); cell-free assay: 89%
EPHB4 (Homo sapiens, UniProt P54760); cell-free assay: 100%
Non-receptor tyrosine-protein kinase TYK2, JH2 (TYK2, Homo sapiens, UniProt P29597); cell-free assay: 77%
GRK3 (Homo sapiens, UniProt P35626); cell-free assay: 76%
PHKG1 (Homo sapiens, UniProt Q16816); cell-free assay: 100%
